{"data": "Earlier results as cited in several papers", "note": "Each numbered part shows a few of the values that one paper quotes. Numbers after ± are the reported error."}
{"data": "Sample 1", "target": "HLA class I histocompatibility antigen, B alpha chain, allele B*15:09 (Homo sapiens, UniProt P01889)", "read-out": "peptide-MHC binding", "molecule type": "peptide"}
{"Sequence": "FLGRIWPS", "IC50 [nM]": "> 20000"}
{"Sequence": "YHENWSATL", "IC50 [nM]": 1}
{"Sequence": "FRDRGQHVL", "IC50 [nM]": 1}
{"data": "Mixed results"}
{"SMILES": "Cc1nnc2n1-c1ccc(Cl)cc1C(c1ccccc1Cl)=NC2", "target or system": "CYP3A5", "assay": "substrate, refers to: 1-hydroxy metabolite formation", "endpoint": "Km", "value": "20.4 µM"}
{"SMILES": "CCCCCOc1ccc(-c2ccc(-c3ccc(C(=O)N[C@H]4C[C@@H](O)[C@@H](O)NC(=O)[C@@H]5[C@@H](O)[C@@H](C)CN5C(=O)[C@H]([C@@H](C)O)NC(=O)[C@H]([C@H](O)[C@@H](O)c5ccc(O)cc5)NC(=O)[C@@H]5C[C@@H](O)CN5C(=O)[C@H]([C@@H](C)O)NC4=O)cc3)cc2)cc1", "test system": "human renal impairment moderate", "conditions": "50 mg single dose", "endpoint": "volume of distribution", "value": "35.6 ± 9.4 L"}
{"SMILES": "O=C(O)CCCn1c2ccccc2c2nc3nonc3nc21", "target or system": "beta-catenin/Tcf4 interaction", "assay": "inhibitor, fluorescence polarization", "endpoint": "Ki", "value": "120000 ± 41000 nM"}
{"SMILES": "CC(=O)O[C@H]1C(=O)[C@@]2(C)[C@H]([C@H](OC(=O)c3ccccc3)[C@]3(O)C[C@H](OC(=O)[C@H](O)[C@@H](NC(=O)c4ccccc4)c4ccccc4)C(C)=C1C3(C)C)[C@]1(OC(C)=O)CO[C@@H]1C[C@@H]2O", "target or system": "LCC6MDR (Pgp+ drug-resistant)", "assay": "cytotoxicity", "endpoint": "IC50", "value": "619 nM"}
{"SMILES": "Cc1ncc2n1-c1ccc(Cl)cc1C(c1ccccc1F)=NC2", "target or system": "UGT1A4", "endpoint": "Vmax", "value": "445 pmol/min/mg protein"}
